Assay results gathered from unrelated publications.
Numbered parts are unrelated; each lists some results of a single study.
UniProt Q9Y2I7, sequence (whole entry, looked up): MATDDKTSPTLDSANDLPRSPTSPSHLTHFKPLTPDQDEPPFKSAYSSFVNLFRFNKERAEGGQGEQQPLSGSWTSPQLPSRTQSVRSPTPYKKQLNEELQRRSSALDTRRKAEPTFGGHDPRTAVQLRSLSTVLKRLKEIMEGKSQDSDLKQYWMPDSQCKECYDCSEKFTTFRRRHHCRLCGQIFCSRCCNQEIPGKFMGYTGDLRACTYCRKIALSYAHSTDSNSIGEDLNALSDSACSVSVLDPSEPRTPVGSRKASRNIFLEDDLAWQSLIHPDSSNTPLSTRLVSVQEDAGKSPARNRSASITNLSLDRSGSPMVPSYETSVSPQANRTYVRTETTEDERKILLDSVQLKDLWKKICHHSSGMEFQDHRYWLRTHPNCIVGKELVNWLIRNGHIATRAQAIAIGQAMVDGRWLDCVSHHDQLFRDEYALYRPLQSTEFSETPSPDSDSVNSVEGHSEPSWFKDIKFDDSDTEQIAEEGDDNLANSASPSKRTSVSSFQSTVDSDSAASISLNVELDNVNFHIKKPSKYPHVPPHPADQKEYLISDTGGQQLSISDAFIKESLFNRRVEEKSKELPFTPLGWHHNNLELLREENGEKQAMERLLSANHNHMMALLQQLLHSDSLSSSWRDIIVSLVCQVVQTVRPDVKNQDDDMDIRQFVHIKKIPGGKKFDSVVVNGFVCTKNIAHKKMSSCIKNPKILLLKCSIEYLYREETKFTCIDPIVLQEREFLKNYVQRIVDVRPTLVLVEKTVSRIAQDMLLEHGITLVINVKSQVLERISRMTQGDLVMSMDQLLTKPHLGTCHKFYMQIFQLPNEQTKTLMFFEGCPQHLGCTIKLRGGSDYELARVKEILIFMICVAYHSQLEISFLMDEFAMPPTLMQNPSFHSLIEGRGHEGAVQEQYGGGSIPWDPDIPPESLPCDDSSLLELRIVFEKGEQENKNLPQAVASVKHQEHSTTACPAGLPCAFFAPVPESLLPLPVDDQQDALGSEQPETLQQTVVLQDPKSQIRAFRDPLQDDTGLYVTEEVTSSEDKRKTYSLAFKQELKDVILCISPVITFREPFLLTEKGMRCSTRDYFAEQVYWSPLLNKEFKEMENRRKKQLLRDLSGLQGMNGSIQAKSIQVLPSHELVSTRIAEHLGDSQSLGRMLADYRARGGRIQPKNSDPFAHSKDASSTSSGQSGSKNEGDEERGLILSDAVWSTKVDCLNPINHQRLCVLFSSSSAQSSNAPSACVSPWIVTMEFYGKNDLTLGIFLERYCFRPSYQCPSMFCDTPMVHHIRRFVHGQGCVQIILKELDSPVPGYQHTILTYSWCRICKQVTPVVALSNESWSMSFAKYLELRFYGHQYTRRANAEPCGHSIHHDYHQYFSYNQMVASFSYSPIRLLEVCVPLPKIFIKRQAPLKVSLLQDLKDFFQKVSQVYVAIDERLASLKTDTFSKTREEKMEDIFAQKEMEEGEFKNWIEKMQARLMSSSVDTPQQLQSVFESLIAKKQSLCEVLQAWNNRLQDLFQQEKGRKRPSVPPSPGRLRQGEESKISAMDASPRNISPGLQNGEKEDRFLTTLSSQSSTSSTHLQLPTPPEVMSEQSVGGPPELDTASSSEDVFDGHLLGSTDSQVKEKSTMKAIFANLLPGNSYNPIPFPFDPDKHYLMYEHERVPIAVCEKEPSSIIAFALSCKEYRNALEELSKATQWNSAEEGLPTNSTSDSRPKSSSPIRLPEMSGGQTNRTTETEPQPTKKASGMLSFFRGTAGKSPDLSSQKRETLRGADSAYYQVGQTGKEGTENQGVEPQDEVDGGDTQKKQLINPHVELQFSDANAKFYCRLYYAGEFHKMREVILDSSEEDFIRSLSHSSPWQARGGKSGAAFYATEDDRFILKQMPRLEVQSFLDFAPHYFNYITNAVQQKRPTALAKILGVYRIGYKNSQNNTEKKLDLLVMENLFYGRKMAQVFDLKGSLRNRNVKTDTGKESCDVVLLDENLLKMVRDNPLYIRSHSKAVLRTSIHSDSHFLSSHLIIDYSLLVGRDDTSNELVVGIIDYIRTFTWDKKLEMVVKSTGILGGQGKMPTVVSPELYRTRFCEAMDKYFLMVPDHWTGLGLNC
UniProt Q9H093, sequence (whole entry, looked up): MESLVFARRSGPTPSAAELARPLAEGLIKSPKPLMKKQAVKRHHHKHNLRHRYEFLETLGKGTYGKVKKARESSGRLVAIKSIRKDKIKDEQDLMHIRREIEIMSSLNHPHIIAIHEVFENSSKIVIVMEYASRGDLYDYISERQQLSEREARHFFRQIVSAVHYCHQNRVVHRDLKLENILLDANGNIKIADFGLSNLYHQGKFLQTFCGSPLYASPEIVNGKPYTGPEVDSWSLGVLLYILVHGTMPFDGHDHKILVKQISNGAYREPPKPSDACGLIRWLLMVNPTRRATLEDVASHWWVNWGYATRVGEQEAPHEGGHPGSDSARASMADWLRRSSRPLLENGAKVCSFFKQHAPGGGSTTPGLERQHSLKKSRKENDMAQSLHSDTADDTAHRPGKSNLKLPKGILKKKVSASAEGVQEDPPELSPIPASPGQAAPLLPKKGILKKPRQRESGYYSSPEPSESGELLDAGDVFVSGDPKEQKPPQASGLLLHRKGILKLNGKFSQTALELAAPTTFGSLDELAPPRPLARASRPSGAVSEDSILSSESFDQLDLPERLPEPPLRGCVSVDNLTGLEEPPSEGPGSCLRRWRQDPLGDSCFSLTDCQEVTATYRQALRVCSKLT
UniProt Q9H1R3, sequence (whole entry, looked up): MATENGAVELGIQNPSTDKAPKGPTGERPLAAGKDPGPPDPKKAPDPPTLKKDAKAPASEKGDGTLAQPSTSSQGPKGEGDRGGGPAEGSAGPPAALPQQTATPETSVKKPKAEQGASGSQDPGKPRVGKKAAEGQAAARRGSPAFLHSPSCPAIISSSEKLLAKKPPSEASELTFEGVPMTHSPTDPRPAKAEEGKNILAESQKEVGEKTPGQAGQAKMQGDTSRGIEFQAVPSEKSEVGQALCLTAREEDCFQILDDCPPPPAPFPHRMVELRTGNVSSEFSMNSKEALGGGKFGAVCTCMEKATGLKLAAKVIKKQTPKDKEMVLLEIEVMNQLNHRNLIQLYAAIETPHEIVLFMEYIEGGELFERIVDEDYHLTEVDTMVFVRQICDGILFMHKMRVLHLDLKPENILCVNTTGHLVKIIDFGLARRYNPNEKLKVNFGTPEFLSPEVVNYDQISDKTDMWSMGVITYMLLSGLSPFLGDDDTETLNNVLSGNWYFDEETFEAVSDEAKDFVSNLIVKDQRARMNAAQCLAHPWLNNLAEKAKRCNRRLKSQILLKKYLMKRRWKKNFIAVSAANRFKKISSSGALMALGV
UniProt O43293, sequence (whole entry, looked up): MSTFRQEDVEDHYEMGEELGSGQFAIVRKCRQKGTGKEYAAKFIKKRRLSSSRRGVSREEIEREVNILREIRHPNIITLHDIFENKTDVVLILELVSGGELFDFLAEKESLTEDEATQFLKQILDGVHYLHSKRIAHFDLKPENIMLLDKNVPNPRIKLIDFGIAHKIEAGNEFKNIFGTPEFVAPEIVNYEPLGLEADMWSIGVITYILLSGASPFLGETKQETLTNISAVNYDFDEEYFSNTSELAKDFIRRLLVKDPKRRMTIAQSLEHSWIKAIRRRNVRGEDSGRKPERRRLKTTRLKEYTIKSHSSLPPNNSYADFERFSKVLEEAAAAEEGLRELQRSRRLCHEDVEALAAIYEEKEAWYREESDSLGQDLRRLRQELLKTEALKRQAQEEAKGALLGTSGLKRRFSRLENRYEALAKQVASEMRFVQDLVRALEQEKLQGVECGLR
UniProt Q9P1W9, sequence (whole entry, looked up): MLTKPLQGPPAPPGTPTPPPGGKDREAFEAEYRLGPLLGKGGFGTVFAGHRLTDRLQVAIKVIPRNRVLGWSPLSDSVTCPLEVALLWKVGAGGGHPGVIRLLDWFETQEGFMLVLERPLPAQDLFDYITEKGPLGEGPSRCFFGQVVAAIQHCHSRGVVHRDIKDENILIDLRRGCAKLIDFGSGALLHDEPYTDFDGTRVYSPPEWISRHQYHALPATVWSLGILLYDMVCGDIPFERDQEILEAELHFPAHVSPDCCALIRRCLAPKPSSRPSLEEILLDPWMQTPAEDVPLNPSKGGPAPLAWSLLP

Series 1 — read-out: enzyme activity; action: inhibitor; concentration: 10 µM; endpoint: inhibition
Target: Calcium/calmodulin-dependent protein kinase type II subunit alpha (CAMK2A, Homo sapiens, UniProt Q9UQM7)
UniProt Q9UQM7, sequence (whole entry, looked up): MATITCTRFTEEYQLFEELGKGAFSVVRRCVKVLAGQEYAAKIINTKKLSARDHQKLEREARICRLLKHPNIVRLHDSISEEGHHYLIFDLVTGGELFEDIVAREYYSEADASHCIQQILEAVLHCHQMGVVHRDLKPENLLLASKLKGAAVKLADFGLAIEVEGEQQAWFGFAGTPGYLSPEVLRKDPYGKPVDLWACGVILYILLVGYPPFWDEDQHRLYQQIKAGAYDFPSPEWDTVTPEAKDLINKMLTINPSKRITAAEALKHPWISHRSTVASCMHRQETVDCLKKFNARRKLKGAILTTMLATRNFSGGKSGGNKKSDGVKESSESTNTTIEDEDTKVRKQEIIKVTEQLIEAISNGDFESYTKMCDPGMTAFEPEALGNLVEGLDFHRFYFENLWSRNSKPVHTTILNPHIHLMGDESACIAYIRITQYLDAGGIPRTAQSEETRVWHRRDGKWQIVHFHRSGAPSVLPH
CCCCCCc1cccs1: 0%
CCCCCCCC/C=C\CCCCCCCCCCCC(=O)O: -28%
CCCCCCCCCCCCCCCC(=O)OCC: -18%
COc1cc(COC(=O)CCCC/C=C/C(C)C)ccc1O: -40%

Series 2 — action: agonist; endpoint: EC50
Target: Beta-1 adrenergic receptor (ADRB1, Homo sapiens, UniProt P08588)
UniProt P08588, sequence (whole entry, looked up): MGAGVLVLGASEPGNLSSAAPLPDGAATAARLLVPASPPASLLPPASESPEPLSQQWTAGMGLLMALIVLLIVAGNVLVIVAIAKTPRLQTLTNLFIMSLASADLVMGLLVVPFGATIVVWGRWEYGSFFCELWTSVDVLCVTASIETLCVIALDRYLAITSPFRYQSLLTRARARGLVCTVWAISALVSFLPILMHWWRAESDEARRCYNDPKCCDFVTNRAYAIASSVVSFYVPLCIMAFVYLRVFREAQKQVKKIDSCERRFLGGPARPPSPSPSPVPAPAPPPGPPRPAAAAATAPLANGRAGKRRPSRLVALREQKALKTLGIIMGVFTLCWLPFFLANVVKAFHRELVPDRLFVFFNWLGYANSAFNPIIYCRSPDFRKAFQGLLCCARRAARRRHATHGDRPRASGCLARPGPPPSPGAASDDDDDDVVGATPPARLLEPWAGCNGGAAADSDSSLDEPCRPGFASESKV
O=C1CCn2nnc(CNc3cccc(C(F)(F)F)c3)c2CN1Cc1ccccc1: ≥ 100 µM
CN(C)c1cccc(-c2ncc3c(n2)OCCN(c2ccccc2)C3=O)c1: ≥ 100 µM
CC#CCn1cc2c3c(cccc31)[C@H](CC(C)C)N[C@H](C(=O)NCc1ccccc1)C2: ≥ 100 µM
COc1cc(-c2cc(-c3ccccc3)nc3c(C)noc23)ccn1: ≥ 100 µM

Series 3 — organism: Sarcocystis neurona; read-out: parasite growth; concentration: 10 µM; time: 96 h; notes: first screen; reference: untreated; endpoint: log2 fold change
O=C(NCCO[N+](=O)[O-])c1cccnc1: -0.06
CC(C)OC(=O)CCC/C=C\C[C@@H]1[C@@H](CC[C@@H](O)CCc2ccccc2)[C@H](O)C[C@@H]1O: 0.15
NC(=O)c1ncn([C@@H]2O[C@H](CO)[C@@H](O)[C@H]2O)n1: 0.18
Cc1cn([C@H]2C=C[C@@H](CO)O2)c(=O)[nH]c1=O: 0.17
CC1COc2c(N3CCN(C)CC3)c(F)cc3c(=O)c(C(=O)O)cn1c23 (centres unmarked): -0.32
C#C[C@]1(O)CC[C@H]2[C@@H]3CCC4=Cc5oncc5C[C@]4(C)[C@H]3CC[C@@]21C: -0.15
CNCC[C@@H](Oc1ccccc1C)c1ccccc1: -0.12

Series 4 — read-out: cell-free assay; technique: competition with immobilised ligand; concentration: 1 µM; endpoint: remaining binding
SMILES: C[C@@H](c1cccc(C#N)c1)n1cc(Cl)cc(C(N)=O)c1=N
MYLK2 (Homo sapiens, UniProt Q9H1R3): 100%
TAOK1 (Homo sapiens, UniProt Q7L7X3): 89%
EGFR (Homo sapiens, UniProt P00533, G719C): 100%
DAPK3 (Homo sapiens, UniProt O43293): 100%
PIK3CA (Homo sapiens, UniProt P42336, M1043I): 100%
PIKFYVE (Homo sapiens, UniProt Q9Y2I7): 100%
STK39 (Homo sapiens, UniProt Q9UEW8): 100%
NUAK2 (Homo sapiens, UniProt Q9H093): 86%
PIM2 (Homo sapiens, UniProt Q9P1W9): 100%
PRKD1 (Homo sapiens, UniProt Q15139): 90%
SGK2 (Homo sapiens, UniProt Q9HBY8): 91%
BMPR2 (Homo sapiens, UniProt Q13873): 100%
MAP3K4 (Homo sapiens, UniProt Q9Y6R4): 71%
MARK2 (Homo sapiens, UniProt Q7KZI7): 100%

Excerpt of the above (series 2):
CN(C)c1cccc(-c2ncc3c(n2)OCCN(c2ccccc2)C3=O)c1: ≥ 100 µM
CC#CCn1cc2c3c(cccc31)[C@H](CC(C)C)N[C@H](C(=O)NCc1ccccc1)C2: ≥ 100 µM
COc1cc(-c2cc(-c3ccccc3)nc3c(C)noc23)ccn1: ≥ 100 µM
